# Assay results of several laboratories.
# Values joined by “and” are separate records of one study, mostly repeats; a detail may differ. ± gives the spread as reported.
# UniProt Q13043, sequence (whole entry, looked up): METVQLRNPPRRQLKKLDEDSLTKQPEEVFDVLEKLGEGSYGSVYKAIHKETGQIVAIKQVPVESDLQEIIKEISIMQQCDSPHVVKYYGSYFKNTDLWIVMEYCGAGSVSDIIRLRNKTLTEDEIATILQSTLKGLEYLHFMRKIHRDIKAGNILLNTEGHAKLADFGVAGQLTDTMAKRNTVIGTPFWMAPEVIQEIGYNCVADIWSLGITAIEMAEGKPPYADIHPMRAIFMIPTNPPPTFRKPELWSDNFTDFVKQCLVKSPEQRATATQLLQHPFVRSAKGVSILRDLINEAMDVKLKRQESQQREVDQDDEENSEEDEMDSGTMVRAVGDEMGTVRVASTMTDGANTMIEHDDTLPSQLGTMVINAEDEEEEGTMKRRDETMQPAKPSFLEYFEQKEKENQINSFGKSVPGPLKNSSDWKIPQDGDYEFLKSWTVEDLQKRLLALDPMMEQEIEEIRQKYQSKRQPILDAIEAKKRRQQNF
SMILES,target or system,test,test system,setting,how to read,quantity,result
CCc1n(Cc2ccc3ccccc3n2)cc[n+]1Cc1ccc2ccccc2c1.[Br-],NSCLC cell lines,,,upper end of range,,TGI,≤ 27.6 µM
CCn1cc(-c2cc(Cn3ccnc3)cc3c2CCN([C@H](c2cc(OC)ccn2)C2CC2)C3=O)c(C(F)(F)F)n1,LS-513,"cell growth, inhibitor",,120 h,,EC50,1140 nM
CCCCc1n(Cc2ccc3ccccc3n2)cc[n+]1Cc1ccc2ccccc2n1,NSCLC cell lines,NCI60 one-dose,,"10 µM, average over cell lines",,growth,25 to 31.8%
C[C@H](Nc1ccc2c(c1)OCCn1cc(N3C(=O)OC[C@H]3C(F)F)nc1-2)C(N)=O,HuH-28,CellTiter-Glo GR metrics,,120 h,,GR Hill coefficient,0.157
CC[C@@H]1[C@H](F)C(=O)N[C@@H]1COc1nccc2cc(C(N)=O)c(OC)cc12,"STK4 (Homo sapiens, UniProt Q13043)","ATP-site probe binding, ActivX profiling, item: MST1",THP-1 cell lysate,"0.04 mM, Lys1 site",,inhibition,-5.2%
CC1(C)CCC2(CC1)N[C@@H](C(=O)N[C@@H]1CC[C@@H](C(N)=O)OC1)[C@H](c1ccnc(Cl)c1F)[C@]21C(=O)Nc2cc(Cl)ccc21,well-differentiated liposarcoma cells (MDM2 amplified),"cell proliferation, alamarBlue",,72 h,,GI50,0.053 µM
C=CC(=O)Nc1cc(Nc2nccc(Nc3cc(Cl)c(F)cc3C(C)(C)O)n2)c(OC)cc1N1CC[C@@H](N(C)C)C1,NCI-H2073 EGFR ASV knock-in,"cell proliferation, CellTiter-Glo",,,baseline: knock-in over parental NCI-H2073,selectivity ratio,1
CSc1cc(Oc2ccnc3[nH]c(=O)cnc23)ccc1NC(=O)Nc1cc(C(C)(C)C)nn1-c1ccccc1,patient-derived cell line (sample C),"reverse phase protein array, item: Akt pSer473",human,"1 µM, 4 h",baseline: DMSO,phospho/total Akt ratio,0.27
CCc1cnc(N2CCC(c3nc(COc4ccc(-n5cnnn5)cc4)cs3)CC2)nc1,HEK-293T,"RNA-seq GSEA, item: HALLMARK_MYOGENESIS",,concentration not given,direction not given,normalized enrichment score,-0.963
CCCCN1C[C@H](O)[C@@H](O)[C@@H](O)[C@H]1CO,sample F patient fibroblasts,"GlcCer level lowering, LC-MS/MS, item: GlcCer d18:1/16:0",,216 h,,IC50,0.0069 mM
O=C(O)COCC(=O)O,"hepatocytes, iPSC-derived, line W3","cell viability, RealTime-Glo MT",,"72 h, differentiation day 23",,IC50,19 mM
C[C@]12CC[C@@H]3c4ccc(O)cc4C[C@@H](CCCCCCCCC[S+]([O-])CCCC(F)(F)C(F)(F)F)[C@H]3[C@@H]1CC[C@@H]2O (stereo partly shown),"MCF7 3xERE-luc, steroid-deprived","ERE luciferase reporter, agonist",,,baseline: vehicle,Emax,-5.89%
COCCOCCOCc1n(Cc2ccc3ccccc3c2)c2ccccc2[n+]1Cc1ccc2ccccc2c1,NSCLC cell lines,NCI60 one-dose screen,,10 µM,,mean growth percentage,13.6%
COc1ccc(-n2nc(C(C)=O)s/c2=N\N=C(/C)c2ccc(NC(=O)c3ccccc3)cc2)cc1,MCF7,,,0.625 µM,,viability,2.72%
CC(C)C(=O)Nc1n[nH]c2cc(-c3cccc(NS(=O)(=O)C4CC4)c3)ccc12,HEK293T,"flow cytometry, item: surface LRP6",,"concentration not given, 8 h, together with: WNT3A",,LRP6-positive cells,47.8% and 30.9%
CNC(=O)c1ccc(N2C(=S)N(c3ccc(C#N)c(C(F)(F)F)c3)C(=O)C2(C)C)cc1F,VCaP,"cell proliferation, CCK-8",,16000 nM,,inhibition,41.4%
C=C[C@@]1(C)CC(=O)[C@]2(O)[C@@]3(C)[C@@H](O)CCC(C)(C)[C@@H]3[C@H](O)[C@H](OC(C)=O)[C@@]2(C)O1,PBMC,MSD,,"0.01 µM, unit not given, together with: PGE2",baseline: DMSO,cAMP level difference,-3.03
C=CC(=O)Nc1cccc(Oc2nc(Nc3ccc(N4CCN(C)CC4)cc3)nc3ccoc23)c1,TMD8 wild-type,"calcium flux, FLIPR",,"4 h preincubation, together with: anti-IgM",,maximum inhibition,45.5%
CC(C)NCC(O)c1ccc(O)c(O)c1 (stereo not shown),mouse ventricular cardiomyocytes,,,"dose not given, 0.159 s",,sarcomere length,1.59 µm
CCn1cc(-c2cc(Cn3ccoc3=N)cc3c2CCN([C@@H](C)c2cc(OC)ccn2)C3=O)c(C(F)(F)F)n1,SNU-398,"cell growth, inhibitor",,120 h,,EC50,289 nM
Cc1cc(Nc2ncc(Cl)c(Nc3ccccc3S(=O)(=O)C(C)C)n2)c(OC(C)C)cc1C1CCNCC1,CLB-GE,"phosphoproteomics LC-MS/MS, item: EIF4B phosphorylation",,"200 nM, 60 min",baseline: untreated,log2 fold change,-1.83
Cn1cc(Nc2nccc(-c3ccc4c(c3)CN(C3COC3)CC[C@H]4NC(=O)c3cn(C(C)(C)C)nn3)n2)cn1,mouse splenic B cells,item: p53 signalling,,"30 mg/kg, IgD-activated in vivo","baseline: vehicle, direction not given",pathway activation z-score,-0.535
CCN1CCN(Cc2ccc(NC(=O)c3ccc(C)c(-c4ccc5nc(NC(=O)C6CC6)cn5c4)c3)cc2C(F)(F)F)CC1,MUTZ5 B-ALL cells,CellTiter-Glo,,"concentration not given, 3 d",,cell proliferation,inhibited
Cn1cc(-n2cnc3c(NCc4nc5cc(Cl)c(Cl)cc5[nH]4)nc(N4CCOCC4)nc32)cn1,MDA-MB-231,"qRT-PCR, item: BRCA1",,"50 nM, 6 h, unit not given",baseline: untreated,mRNA level,0.322
COC(=O)c1cc2c(cc1C(=O)OC)[n+](Cc1ccc3ccccc3c1)cn2Cc1ccc2ccccc2c1,NSCLC cell lines,NCI60 one-dose screen,,10 µM,,mean growth percentage,87%
c1cnc2c(c1)ccc1cccnc12,HEK293T,,,25 µg/mL,baseline: albendazole,IL-1β mRNA level,decreased
CCCCc1nc(Cl)c(CO)n1Cc1ccc(-c2ccccc2-c2nn[nH]n2)cc1,human PBMC,"RNA-seq, item: FN1 mRNA",,"10 µg/mL, 24 h",baseline: untreated control,log2 fold change,-1.84
CC1(C)CCC(CN2CCN(c3ccc(C(=O)NS(=O)(=O)c4ccc(NCC5CCOCC5)c([N+](=O)[O-])c4)c(Oc4cnc5[nH]ccc5c4)c3)CC2)=C(c2ccc(Cl)cc2)C1,THP-1,"annexin V/PI flow cytometry, item: annexin V+/PI+",,"0.4 µM, 24 h",,late apoptotic cells,2.5%
C=CC(=O)N1[C@@H](c2ccc3c(c2)OCO3)c2[nH]c3ccccc3c2C[C@H]1C(=O)NC,rat DRG neurons,,,"0.01372 µM, 48 h, together with: vincristine 40 nM",,mean neuron degeneration,79.6%
COc1ccc(C2CC(c3ccccc3Cl)Nc3nc(N)nn32)cc1OC (stereo not shown),MEF with TRE-FLAG-LMNB1,"LMNB1 level, high-content screening",,250 µM,,maximum inhibition,22%
O=C(/C=C/C=C/C=C/C1CCCCC1)NC1=C[C@@](O)(/C=C/C=C/C=C/C(=O)NC2=C(O)CCC2=O)[C@@H]2O[C@@H]2C1=O,COLO-829,"cell growth, CellTiter-Glo",,78 h,,GI50,15.9 µM
C=CC1=C(C)c2cc3[n-]c(cc4nc(cc5[n-]c(cc1n2)c(C)c5C=C)C(C)=C4CCC(=O)O)c(CCC(=O)O)c3C.[Zn+2],SH-SY5Y,"RNA-seq, item: FOSL1 mRNA",,"5 µM, 5 h",baseline: untreated cells,fold change,1.97
Nc1ncnc2c1ncn2[C@@H]1O[C@H](CO)[C@@H](O)[C@H]1O,activated human T cells,item: dihydroorotate,,10 µM,baseline: DMSO,log2 fold change,5.7 and 5.6
COc1ccc(CC(=O)N(Cc2ccncc2)Cc2cccc(OCCc3ccc(F)cc3)c2)cc1,L-363,immunoblot,,"15 µM, 18 h",,MCL-1 protein level,decreased
C=CC(=O)N1CCC([C@@H]2CCNc3c(C(N)=O)c(-c4ccc(Oc5ccccc5)cc4)nn32)CC1,TMD8 wild-type,"calcium flux, FLIPR",,"2 h preincubation, together with: anti-IgM",,maximum inhibition,87.1%
CC(C)(c1ccc(O)cc1)c1ccc(O)cc1,HepG2 spheroids,Hoechst flow cytometry,,"10 µM, 96 h",,S phase cells,12.2 ± 3.68%
O=C(Nc1nnc2n3c(=S)[nH][nH]c3nc(-c3ccc(Cl)cc3)c1-2)c1ccccc1,SF-539,SRB,,"10 µM, NCI60 single-dose screen",baseline: untreated,cell growth,85.4%
CC/C(=N\NC(=O)C(C)Nc1ccccc1)c1ccc(O)c(C)c1O (stereo not shown),SK-OV-3,"Western blot, item: LATS",,"10 µM, 1 h, 2D culture, unit not given",baseline: β-actin,protein level,1.16 ± 0.73
OC(CCN1CCCCC1)(c1ccccc1)C1CC2C=CC1C2 (stereo not shown),,resting-state EEG,healthy elderly humans,"oral, 4 mg, eyes open, LS mean",,EEG Beta1-power Pz-O2,3.6 µV²
CCOc1cc([C@@H](CS(C)(=O)=O)N2C(=O)c3cccc(NC(C)=O)c3C2=O)ccc1OC,PBMC,MSD,,"0.01 µM, unit not given, together with: PGE2",baseline: DMSO,cAMP level difference,-2.55
CC(C)(O)c1coc(S(=O)(=O)NC(=O)Nc2c3c(cc4c2CCC4)CCC3)c1,"THP-1 CASP1 knockout, LPS-primed",inhibitor,,"25 µM, 2 h, together with: nigericin 6.25 µM",,LDH release,16.4% and 20.6% and 17.4%
Cn1cc(-c2ccc(-c3cncc(Cl)c3N3CCC4(CCNC4=O)CC3)cc2)cn1,COLO 205,"gene expression, microarray, item: HIST1H4A mRNA",,"concentration not given, 2 h",baseline: untreated cells,log2 fold change,-2.48
NC(=O)c1cnc2[nH]ccc2c1N[C@@H]1[C@@H]2CC3C[C@H]1C[C@@](O)(C3)C2,,"CD8+ memory T cells, flow cytometry","Japanese humans, peripheral blood",20 mg single dose,baseline: baseline,percent change,-0.3%
Cc1ccc(CNC(=O)Cn2cc(CSc3nc4ccccc4[nH]3)nn2)cc1,HEK293,MTT,,7.81 ppm,,cytotoxicity,51.1%
CN[C@H](CC(C)C)C(=O)N[C@H]1C(=O)N[C@@H](CC(N)=O)C(=O)N[C@H]2C(=O)N[C@H]3C(=O)N[C@H](C(=O)N[C@H](C(=O)O)c4cc(O)cc(O)c4-c4cc3ccc4O)[C@H](O)c3ccc(c(Cl)c3)Oc3cc2cc(c3O[C@@H]2O[C@H](CO)[C@@H](O)[C@H](O)[C@H]2O[C@H]2C[C@](C)(N)[C@H](O)[C@H](C)O2)Oc2ccc(cc2Cl)[C@H]1O,Streptococcus pyogenes,,10 isolates,pH 5.5,,MIC50,0.5 µg/mL
CCCN1CCN(c2ccc3[nH]c(-c4ccc5[nH]c(-c6cc(OC)c(OC)c(OC)c6)nc5c4)nc3c2)CC1,SF-539,SRB,,"10 µM, 48 h",,growth percent,59.6%
Cc1cc(NC(=O)c2cccc(NC(=O)/C=C/CN(C)C)c2)ccc1Nc1nccc(-c2cccnc2)n1,AP1 reporter HEK293,"AP1 reporter gene, inhibitor",,"10 µM, 6 h, compound kept in medium, unit not given, together with: PMA",baseline: PMA alone,reporter activity,0.187
Cn1c(Nc2nc3ccc(C(F)(F)F)cc3s2)nc2cc(C(=O)NCCOCCO)ccc21,SH-SY5Y,"RNA-seq, item: SYNJ2 mRNA",,"5 µM, 5 h",baseline: untreated cells,fold change,2.97
c1coc(-c2n[nH]cc2-c2ccnc3ccccc23)c1,DUN1 (Candida albicans),"kinase binding, MIB/MS competition",Candida albicans lysate,1 µM,baseline: DMSO,log2 fold change,-0.15
CC/C(=N\NC(=O)NCc1cccc(O)c1)c1ccc(O)c(C)c1O,SK-OV-3,"gene expression, microarray, item: DKK1",,"10 µM, 24 h",baseline: DMSO,log ratio,4.04
COc1cnc2cccc(N3CCc4c(cc(Cn5ccnc5C)cc4-c4cn(C)nc4C(F)(F)F)C3=O)c2c1,ARH-77,"cell growth, inhibitor",,120 h,,EC50,20500 nM
Nc1cccc2c1C(=O)N(C1CCC(=O)NC1=O)C2=O (stereo not shown),MM1.S,XTT,,1.4 µM,baseline: untreated,viability,18%
